Measurements collected from several papers.
Parts stem from different laboratories: compare values within a part only.
Sequence of UniProt Q9Y6M4 (whole entry, looked up): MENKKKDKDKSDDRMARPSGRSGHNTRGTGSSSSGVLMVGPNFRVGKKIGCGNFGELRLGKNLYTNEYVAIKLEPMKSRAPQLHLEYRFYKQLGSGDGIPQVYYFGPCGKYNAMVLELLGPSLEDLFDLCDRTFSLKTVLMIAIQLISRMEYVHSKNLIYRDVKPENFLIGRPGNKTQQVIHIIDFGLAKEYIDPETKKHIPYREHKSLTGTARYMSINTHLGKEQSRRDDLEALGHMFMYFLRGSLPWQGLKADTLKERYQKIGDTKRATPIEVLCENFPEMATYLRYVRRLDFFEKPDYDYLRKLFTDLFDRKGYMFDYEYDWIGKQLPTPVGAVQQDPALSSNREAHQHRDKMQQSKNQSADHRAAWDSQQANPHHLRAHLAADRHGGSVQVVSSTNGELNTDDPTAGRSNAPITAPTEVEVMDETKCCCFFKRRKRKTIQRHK
Sequence of UniProt O15146 (whole entry, looked up): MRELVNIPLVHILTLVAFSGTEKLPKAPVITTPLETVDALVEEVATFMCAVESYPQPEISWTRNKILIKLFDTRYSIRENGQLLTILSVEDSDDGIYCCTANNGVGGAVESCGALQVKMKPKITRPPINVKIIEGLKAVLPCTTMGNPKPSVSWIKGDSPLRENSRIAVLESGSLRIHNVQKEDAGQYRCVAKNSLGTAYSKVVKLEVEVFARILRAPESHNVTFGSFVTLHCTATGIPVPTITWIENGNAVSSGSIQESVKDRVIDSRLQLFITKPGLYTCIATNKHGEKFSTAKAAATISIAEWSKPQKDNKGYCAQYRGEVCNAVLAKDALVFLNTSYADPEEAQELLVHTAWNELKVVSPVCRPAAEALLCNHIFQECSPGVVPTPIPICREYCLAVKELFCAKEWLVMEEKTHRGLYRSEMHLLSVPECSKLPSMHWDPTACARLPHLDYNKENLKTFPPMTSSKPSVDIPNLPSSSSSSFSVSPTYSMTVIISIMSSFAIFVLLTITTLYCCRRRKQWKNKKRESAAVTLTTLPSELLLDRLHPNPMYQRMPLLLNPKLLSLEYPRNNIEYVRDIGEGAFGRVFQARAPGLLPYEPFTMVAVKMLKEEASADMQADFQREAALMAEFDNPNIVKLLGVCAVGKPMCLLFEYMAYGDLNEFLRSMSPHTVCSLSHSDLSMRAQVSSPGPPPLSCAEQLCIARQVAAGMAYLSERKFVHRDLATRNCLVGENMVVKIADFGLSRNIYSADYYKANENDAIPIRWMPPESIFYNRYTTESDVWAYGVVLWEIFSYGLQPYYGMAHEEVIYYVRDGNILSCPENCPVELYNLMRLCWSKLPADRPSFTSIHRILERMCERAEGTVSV
Sequence of UniProt O96017 (whole entry, looked up): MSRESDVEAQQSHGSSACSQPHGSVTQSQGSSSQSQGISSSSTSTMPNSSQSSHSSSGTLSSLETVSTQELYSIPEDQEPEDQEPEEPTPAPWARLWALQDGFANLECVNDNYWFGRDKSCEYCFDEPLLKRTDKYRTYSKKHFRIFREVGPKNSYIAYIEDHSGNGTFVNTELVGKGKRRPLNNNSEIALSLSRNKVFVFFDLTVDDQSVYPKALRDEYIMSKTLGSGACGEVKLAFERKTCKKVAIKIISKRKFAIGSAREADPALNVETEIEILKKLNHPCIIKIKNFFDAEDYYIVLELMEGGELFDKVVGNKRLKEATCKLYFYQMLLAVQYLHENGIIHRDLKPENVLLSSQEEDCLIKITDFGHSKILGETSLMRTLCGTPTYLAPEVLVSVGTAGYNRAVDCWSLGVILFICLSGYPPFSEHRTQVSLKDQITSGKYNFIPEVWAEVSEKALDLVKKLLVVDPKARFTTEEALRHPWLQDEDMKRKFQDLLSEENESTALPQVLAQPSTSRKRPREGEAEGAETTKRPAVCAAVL
Sequence of UniProt Q9UL54 (whole entry, looked up): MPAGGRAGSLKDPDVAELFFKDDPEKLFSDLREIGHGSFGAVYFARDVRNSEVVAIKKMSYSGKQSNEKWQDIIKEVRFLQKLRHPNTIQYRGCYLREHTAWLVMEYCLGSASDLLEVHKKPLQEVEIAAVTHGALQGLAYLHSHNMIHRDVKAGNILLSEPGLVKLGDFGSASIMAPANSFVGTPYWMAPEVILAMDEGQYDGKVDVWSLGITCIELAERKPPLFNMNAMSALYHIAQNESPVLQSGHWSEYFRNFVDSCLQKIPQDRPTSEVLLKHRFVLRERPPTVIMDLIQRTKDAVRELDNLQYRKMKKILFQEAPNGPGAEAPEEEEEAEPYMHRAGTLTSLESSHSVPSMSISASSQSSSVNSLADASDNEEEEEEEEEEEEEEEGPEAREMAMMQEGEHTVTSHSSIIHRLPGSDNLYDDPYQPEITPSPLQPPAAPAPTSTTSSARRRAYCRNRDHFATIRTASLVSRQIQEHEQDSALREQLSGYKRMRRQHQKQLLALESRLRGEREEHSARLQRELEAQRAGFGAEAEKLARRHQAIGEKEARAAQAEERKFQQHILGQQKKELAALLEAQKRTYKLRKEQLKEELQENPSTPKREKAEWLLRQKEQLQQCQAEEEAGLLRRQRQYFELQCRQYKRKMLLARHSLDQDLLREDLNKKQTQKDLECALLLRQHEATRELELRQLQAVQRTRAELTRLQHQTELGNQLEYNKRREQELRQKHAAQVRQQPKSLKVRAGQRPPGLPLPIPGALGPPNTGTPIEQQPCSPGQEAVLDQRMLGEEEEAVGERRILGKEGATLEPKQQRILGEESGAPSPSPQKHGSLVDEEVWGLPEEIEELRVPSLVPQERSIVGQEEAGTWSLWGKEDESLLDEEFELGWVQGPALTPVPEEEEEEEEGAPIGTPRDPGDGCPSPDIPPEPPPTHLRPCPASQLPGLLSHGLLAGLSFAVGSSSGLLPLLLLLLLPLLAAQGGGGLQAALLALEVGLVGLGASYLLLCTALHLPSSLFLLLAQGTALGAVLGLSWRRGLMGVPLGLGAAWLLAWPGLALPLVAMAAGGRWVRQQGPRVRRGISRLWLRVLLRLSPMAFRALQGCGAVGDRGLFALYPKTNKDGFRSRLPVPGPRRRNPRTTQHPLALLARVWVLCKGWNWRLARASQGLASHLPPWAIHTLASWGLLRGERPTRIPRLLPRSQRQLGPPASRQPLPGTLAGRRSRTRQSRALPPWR
Sequence of UniProt P10398 (whole entry, looked up): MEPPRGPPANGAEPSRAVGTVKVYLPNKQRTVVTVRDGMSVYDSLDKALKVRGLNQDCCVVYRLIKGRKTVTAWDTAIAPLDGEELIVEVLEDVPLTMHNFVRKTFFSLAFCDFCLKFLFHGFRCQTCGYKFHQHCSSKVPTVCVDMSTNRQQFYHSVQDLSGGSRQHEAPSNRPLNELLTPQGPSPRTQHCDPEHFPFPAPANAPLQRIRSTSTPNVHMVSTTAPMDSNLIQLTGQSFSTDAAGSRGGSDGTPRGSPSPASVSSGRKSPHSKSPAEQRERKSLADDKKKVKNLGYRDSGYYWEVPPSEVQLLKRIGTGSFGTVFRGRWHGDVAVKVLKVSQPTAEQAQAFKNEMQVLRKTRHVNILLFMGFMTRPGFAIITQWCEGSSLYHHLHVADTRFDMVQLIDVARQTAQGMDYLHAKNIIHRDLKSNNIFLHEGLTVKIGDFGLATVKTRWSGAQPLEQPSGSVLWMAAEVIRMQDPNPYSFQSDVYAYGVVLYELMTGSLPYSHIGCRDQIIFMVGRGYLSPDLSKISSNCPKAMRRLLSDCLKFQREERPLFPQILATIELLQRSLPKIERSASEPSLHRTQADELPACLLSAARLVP
Sequence of UniProt P37023 (whole entry, looked up): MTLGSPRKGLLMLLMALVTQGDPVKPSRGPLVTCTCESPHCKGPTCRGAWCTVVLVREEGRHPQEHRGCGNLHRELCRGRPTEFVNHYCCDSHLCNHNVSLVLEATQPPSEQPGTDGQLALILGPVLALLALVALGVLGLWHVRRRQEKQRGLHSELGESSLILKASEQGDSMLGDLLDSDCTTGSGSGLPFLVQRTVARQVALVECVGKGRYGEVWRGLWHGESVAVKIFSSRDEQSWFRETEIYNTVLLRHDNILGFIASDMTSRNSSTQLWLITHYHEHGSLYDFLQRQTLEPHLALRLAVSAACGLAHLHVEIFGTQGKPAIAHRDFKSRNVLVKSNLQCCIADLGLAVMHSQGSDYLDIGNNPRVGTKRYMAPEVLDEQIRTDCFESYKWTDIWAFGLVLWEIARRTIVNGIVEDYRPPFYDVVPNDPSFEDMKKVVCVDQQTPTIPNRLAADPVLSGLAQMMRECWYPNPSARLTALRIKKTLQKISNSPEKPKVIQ
Sequence of UniProt P27361 (whole entry, looked up): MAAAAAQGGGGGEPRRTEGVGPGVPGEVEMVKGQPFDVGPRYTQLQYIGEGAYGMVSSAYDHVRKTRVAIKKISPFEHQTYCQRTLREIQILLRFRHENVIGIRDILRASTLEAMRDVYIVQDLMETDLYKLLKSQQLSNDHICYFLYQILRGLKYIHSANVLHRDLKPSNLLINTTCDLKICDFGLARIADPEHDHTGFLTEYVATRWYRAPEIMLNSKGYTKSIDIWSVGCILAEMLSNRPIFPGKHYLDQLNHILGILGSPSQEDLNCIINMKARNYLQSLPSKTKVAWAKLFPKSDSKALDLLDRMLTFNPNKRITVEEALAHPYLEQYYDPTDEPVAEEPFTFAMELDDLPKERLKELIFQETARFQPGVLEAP

Study 1
Structure (SMILES): Cc1cc(NC(=O)c2cccc(S(F)(F)(F)(F)F)c2)cc(-n2ccn3nc(-c4cccnc4)cc23)c1
Concentration: 1 µM
| target | observed | technique | remaining binding [%] |
| --- | --- | --- | --- |
| Receptor-type tyrosine-protein kinase FLT3 (FLT3, Homo sapiens, UniProt P36888, F691L/ITD) | cell-free assay | competition with immobilised ligand | 100 |
| Phosphatidylinositol 4,5-bisphosphate 3-kinase catalytic subunit alpha isoform (PIK3CA, Homo sapiens, UniProt P42336, I800L) | cell-free assay | competition with immobilised ligand | 96 |
| Casein kinase I isoform gamma-3 (CSNK1G3, Homo sapiens, UniProt Q9Y6M4) | cell-free assay | competition with immobilised ligand | 100 |
| NUAK family SNF1-like kinase 1 (NUAK1, Homo sapiens, UniProt O60285) | cell-free assay | competition with immobilised ligand | 51.3 |
| Tyrosine-protein kinase ABL1, phosphorylated (ABL1, Homo sapiens, UniProt P00519, H396P) | cell-free assay | competition with immobilised ligand | 100 |
| TGF-beta receptor type-1 (TGFBR1, Homo sapiens, UniProt P36897) | cell-free assay | competition with immobilised ligand | 74.3 |
| Muscle, skeletal receptor tyrosine-protein kinase (MUSK, Homo sapiens, UniProt O15146) | cell-free assay | competition with immobilised ligand | 82 |
| Activin receptor type-1-like (ACVRL1, Homo sapiens, UniProt P37023) | cell-free assay | competition with immobilised ligand | 100 |
| Tyrosine-protein kinase ZAP-70 (ZAP70, Homo sapiens, UniProt P43403) | cell-free assay | competition with immobilised ligand | 100 |
| Serine/threonine-protein kinase Chk2 (CHEK2, Homo sapiens, UniProt O96017) | cell-free assay | competition with immobilised ligand | 100 |
| Eukaryotic translation initiation factor 2-alpha kinase 1 (EIF2AK1, Homo sapiens, UniProt Q9BQI3) | cell-free assay | competition with immobilised ligand | 100 |
| eIF-2-alpha kinase GCN2, C-terminal kinase domain (EIF2AK4, Homo sapiens, UniProt Q9P2K8, S808G) | cell-free assay | competition with immobilised ligand | 100 |
| Serine/threonine-protein kinase MRCK gamma (CDC42BPG, Homo sapiens, UniProt Q6DT37) |  | competition binding | 100 |

Study 2
Target: Hepatocyte nuclear factor 3-alpha (Foxa1, Mus musculus, UniProt P35582, residues 1-468, full length assumed)
Sequence of UniProt P35582 (whole entry, looked up): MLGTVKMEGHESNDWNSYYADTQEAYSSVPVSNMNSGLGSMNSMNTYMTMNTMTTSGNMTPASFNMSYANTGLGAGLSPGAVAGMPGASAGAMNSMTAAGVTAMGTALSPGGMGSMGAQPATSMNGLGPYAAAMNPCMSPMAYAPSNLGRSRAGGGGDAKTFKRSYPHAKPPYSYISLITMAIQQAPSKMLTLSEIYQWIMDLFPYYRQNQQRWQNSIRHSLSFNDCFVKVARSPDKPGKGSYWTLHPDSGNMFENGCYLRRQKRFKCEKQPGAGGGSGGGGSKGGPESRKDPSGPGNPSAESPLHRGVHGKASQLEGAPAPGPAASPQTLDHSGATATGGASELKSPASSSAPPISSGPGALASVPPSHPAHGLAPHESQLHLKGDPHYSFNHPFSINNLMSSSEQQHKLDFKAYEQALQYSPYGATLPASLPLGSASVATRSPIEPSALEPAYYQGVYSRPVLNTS
Technique: EMSA with sequencing
Form: double-stranded DNA, one strand shown
Sample: in vitro
Concentration: 10 and 20 nM
Notes: whole designed probe, mean of two concentrations, ends assumed
Reference: negative control set to 0
Direction: higher = stronger binding
All sequences stand within: GTGAGCGGTGCCCATTGATGGGGAAC … TTTCACTGGGATCGTGGGGAC
| Sequence | normalised bound fraction [ratio] |
| --- | --- |
| TACCATTCAAGAAACCTTTTTTTTTTCTTTGCGTCTGTGAGACATATGAGAAAATCAATAAATTTACTTTCTTGGAAAAATAAACACTTCCTATGTAATCTAACATAGACCTTTAGAGCAGTATAAATTGTTTGTGAAAATAGTTTAATTGCAGCAAACACACAGAAAGGATTAACTTATTTTCAGATTTGGT | 0.231 |
| TGAGCCCTTGAATTTCCAATTTTCCCTTTGTCTCCCATTCTTAATATTTCTCAAAAAAATTCAATTATTCCCTCTCTTAAAATAAACTCAATGTAAACAGGGTATATAAACTATGGATCACAATTGAATGAAACATTCTGCAAATATTGAAAATTATCTGTCTAATCTATATATTGATGATAGGAAATGTATT | 0.225 |
| ATCTTCCCCCTCTTCCTTGCCCCACCAGCTCACCTTCCCGGGTTATTTGCAGATAGGAAAATAAATAAAGCCGGCATTCGTTAACCCTCTTCAGATGAATCATGCCAGAGCAAACAGATCTAACATGGTCCTTTGGCGACGCCAGGCTCCGGGAGAGCAAAGCACCGTGTCAGGGCCATGATCCGGGGTGGCC | 0.4 |
| TGATGATACGTTATAGCATTTCTCTGCTCTGTAAGAGAGGCACCAGGGTCGTGTGCTGGGTCTCACATCCGGTGGGGTTTGTCCATTCGCTGCTGTTGACTCTGGTGTCGGCCGCTGGTGAGCTGGCTGTAGCTGGTCACCTCTGGGTGGTTTCTGGGGCGGTCGCAGGCTGACTAACACACCAAAGGTCAGC | 0.0126 |
| CACGTGGGTATTACCAAGCATGAAATTATCATCTAAAAACTCAATTTTAAAGAGCTGGTTCTTTGGGAAAAATAAGAAAGAACATTTCTTCCTGTTTACTCTGAGATTTGCTTTTTTTTCCCCAATAATGTGGTTATTGCGTCTTTCTTAATCTTTAGCGATTAGGCTTGAATTTTCACCTAGTGTCCAATTT | 0.0351 |
| ATGTGGGAACTAATTGAGGACCAAGATTACAATGCGTACAAATCATAAATCAATTAGTTCATATTGATTTACAAACAAGGAAGAAAAAGTATTAGATTACATTGATACTGTCCATGTAAACTTTTTTCAATTCAAAAGAAACACATAGTTCTGTCATAAAGTAGATTTTCTATCCCTTTTATTTTCTGAGCTT | 0.264 |
| CTTTAATATTGTGGACTTGTGACTGGTTTGCCTTTCTTATTCAAGACAGTTTGATATGAATTATTTTGTTTTTAAAGGAACAAGAAAACTGATGTTTACATAGAGTTTATTATGAAAATATGGACAAATTATGTTTGTAAAATTTGCTGTGGTTCAATTTATCTAACAAAGCAAGAAGTGTAACACTTAATCT | 0.394 |
| CAAGTTTGTGGTCCAGGAGCAACAGGTTATGCCATACAGCCTAGGTGTGTAGTAGGCTACACACCGTCTATGTTTGTGTTGTACACTCTACAAAGATTGCACAATGATGAAATCCCATGACTCATTTCTCAGAACATACCCCTGTTGTTAAGCGATACATGACTGTACTTTTTTTAAAAAGTCCAAGGATATA | 0.153 |

Study 3
Target: RING finger protein unkempt homolog, zinc fingers 1-6, GST-SBP tag (UNK, Homo sapiens, UniProt Q9C0B0, residues 30-357)
Technique: RNA Bind-n-Seq
Form: RNA
Sample: in vitro
Concentration: not given
Notes: RNA with constant flanks, ends assumed
Reference: input RNA pool
Direction: higher = stronger binding
All sequences stand within: GGGAGUUCUACAGUCCGACGAUC … CAACAGAGGAUUGAGCAUCA
Construct (chain): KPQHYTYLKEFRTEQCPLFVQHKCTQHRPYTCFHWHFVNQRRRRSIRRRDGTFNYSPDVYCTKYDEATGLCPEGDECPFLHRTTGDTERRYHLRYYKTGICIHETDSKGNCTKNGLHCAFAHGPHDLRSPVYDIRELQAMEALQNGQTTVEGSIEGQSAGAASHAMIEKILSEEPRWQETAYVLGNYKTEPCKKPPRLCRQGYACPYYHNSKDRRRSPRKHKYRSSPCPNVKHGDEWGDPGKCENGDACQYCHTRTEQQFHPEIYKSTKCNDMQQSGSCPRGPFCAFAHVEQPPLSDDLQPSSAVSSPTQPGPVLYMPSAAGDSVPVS
| Sequence | bound/input enrichment [ratio] |
| --- | --- |
| GUGAAGAGAAACAAUUUCUAGCCUUCUUGCCAAAUCCAGACCUCUGGUUGACUUUUCUUUCACCGAAGAUGGAGUUAUCUUCCAGUUUUCCAACUUAAAUUUAUUUAGCCUUUAUAUUAU | 480 |
| UCUGGCGUGCCCCUCUUUUAUUUCUUCAACUGGAAUUUUCUCCUUCUACGCACCCUGCAGUCCGUCCUCGAAAGCAUGGACUCAUGGCUGUCGCCAACCCCACUGACACAGUCUGUCCUA | 0.367 |
| UUUGCAGAAUGGAGGCAGCUCUGGUUGACCGGUUCCUUGGUUGAGCUCUGACUCAAGACCCCGGUCCCAAGAGCAGGCCUUCCUCACCUAAGAGAGCAACACCUAUGGGUGACCCAUUCU | 0.061 |
| AGGGACACAGUGUGUGUCUGAUUGGGCUUCGCAUCAAAAGCCUGACGUUCCUGUCCCUCUUACCGGGGGAGCUUUGGACACAGGACCAGUUUGAUAAAGGGCCAGGUAAGGGUUUCCACU | 0.0503 |
| UCUGAGGAUACCACUGAAGAGACAUUAAAGGAGUCAUUUGACGGCUCCGUUCGGGCAAGGACCGUUACUGACCGGGAAACUGGGUCCUCCAAAGGGUUUGGUUUUGUAGACUUCAACAGU | 0.126 |
| UGUCAGCAGAAACAUUUAAUGUGAAAUAAUUCUGUAUUUCUGAGACAAGAUCAACACAGCCGUUCUUUACAUUGAGCUGAGGUGAAUGUAUACUUAAAAAUACUCUAUUUUCUUUUUAUA | 0.132 |
| AUGGUUCUUAAAGAUGUGGGAUUGAAAAAAGAAGAUAUUGCAAUGUGGGAAGUAAAUGAAGCCUUCCGUCUGGUUGUACUAGCAAACAUUAAAAUGUUGGAGAUUGAUCCCCAAAAAGUG | 0.359 |
| AGUUAUGACGGUAUAAAGCUUGAGCCUGAAAAUCCCCCACCAUAUGAAGAAGCCAUGAGUGCCGCACUAAAAACAUCGGACUCAAAGGAAGAAAUUAAAGAGCCUGAAAGUUUUAAUGCA | 0.327 |

Study 4
SMILES: CC(=O)O/N=C1/C(c2c(O)[nH]c3cc(Br)ccc23)=Nc2ccccc21
Observed: enzyme activity
Mode: inhibitor
Concentration: 0.5 µM
Reference: control
| target | remaining activity [%] |
| --- | --- |
| Serine/threonine-protein kinase ULK2 (ULK2, Homo sapiens, UniProt Q8IYT8) | 92.2 |
| Tyrosine-protein kinase Lck (LCK, Homo sapiens, UniProt P06239) | 53.5 |
| Casein kinase I isoform gamma-2 (CSNK1G2, Homo sapiens, UniProt P78368) | 89.7 |
| Mitogen-activated protein kinase kinase kinase 14 (MAP3K14, Homo sapiens, UniProt Q99558) | 75.7 |
| Wee1-like protein kinase (WEE1, Homo sapiens, UniProt P30291) | 93.7 |
| Tyrosine-protein kinase Mer (MERTK, Homo sapiens, UniProt Q12866) | 77 |
| Serine/threonine-protein kinase A-Raf (ARAF, Homo sapiens, UniProt P10398) | 97.2 |
| Tyrosine-protein kinase ABL2 (ABL2, Homo sapiens, UniProt P42684) | 26.4 |
| Serine/threonine-protein kinase Nek6 (NEK6, Homo sapiens, UniProt Q9HC98) | 100 |
| Tyrosine-protein kinase FRK (FRK, Homo sapiens, UniProt P42685) | 51.2 |
| Mitogen-activated protein kinase 3 (MAPK3, Homo sapiens, UniProt P27361) | 93.7 |
| Activin receptor type-1B (ACVR1B, Homo sapiens, UniProt P36896) | 98.2 |
| Casein kinase I isoform gamma-3 (CSNK1G3, Homo sapiens, UniProt Q9Y6M4) | 101 |
| Serine/threonine-protein kinase TAO2 (TAOK2, Homo sapiens, UniProt Q9UL54) | 84.4 |

Some of these lines once more (study 4):
| target | remaining activity [%] |
| --- | --- |
| Tyrosine-protein kinase FRK (FRK, Homo sapiens, UniProt P42685) | 51.2 |
| Serine/threonine-protein kinase A-Raf (ARAF, Homo sapiens, UniProt P10398) | 97.2 |
